Measured values from different studies.
Compare with care: the assays were run in different laboratories. ± marks the error that the study gave.
Urease: Urease (Canavalia ensiformis, UniProt P07374)
Chain of UniProt P07374 (whole entry, looked up): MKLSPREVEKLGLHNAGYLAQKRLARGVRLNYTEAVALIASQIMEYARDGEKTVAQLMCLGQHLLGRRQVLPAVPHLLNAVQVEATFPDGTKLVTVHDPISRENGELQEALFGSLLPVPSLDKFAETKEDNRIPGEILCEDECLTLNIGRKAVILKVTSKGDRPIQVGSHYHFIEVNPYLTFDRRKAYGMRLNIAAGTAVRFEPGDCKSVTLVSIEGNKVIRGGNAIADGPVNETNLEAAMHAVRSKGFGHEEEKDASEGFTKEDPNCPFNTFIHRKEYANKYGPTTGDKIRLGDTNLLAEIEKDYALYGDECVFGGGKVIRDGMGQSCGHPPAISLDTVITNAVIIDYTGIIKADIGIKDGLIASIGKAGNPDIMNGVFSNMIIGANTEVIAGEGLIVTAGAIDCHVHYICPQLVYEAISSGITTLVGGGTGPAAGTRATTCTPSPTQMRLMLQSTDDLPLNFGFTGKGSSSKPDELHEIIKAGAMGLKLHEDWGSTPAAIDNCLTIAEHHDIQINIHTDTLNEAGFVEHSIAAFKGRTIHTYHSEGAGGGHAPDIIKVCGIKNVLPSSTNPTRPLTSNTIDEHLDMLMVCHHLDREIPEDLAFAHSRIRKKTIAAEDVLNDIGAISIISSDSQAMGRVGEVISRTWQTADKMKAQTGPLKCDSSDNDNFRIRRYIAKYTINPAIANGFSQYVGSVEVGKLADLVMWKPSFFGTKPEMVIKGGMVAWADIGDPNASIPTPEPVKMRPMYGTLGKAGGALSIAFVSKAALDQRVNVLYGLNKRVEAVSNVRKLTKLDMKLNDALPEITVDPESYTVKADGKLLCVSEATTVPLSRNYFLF
CA1: Carbonic anhydrase 1 (CA1, Homo sapiens, UniProt P00915)
Chain of UniProt P00915 (whole entry, looked up): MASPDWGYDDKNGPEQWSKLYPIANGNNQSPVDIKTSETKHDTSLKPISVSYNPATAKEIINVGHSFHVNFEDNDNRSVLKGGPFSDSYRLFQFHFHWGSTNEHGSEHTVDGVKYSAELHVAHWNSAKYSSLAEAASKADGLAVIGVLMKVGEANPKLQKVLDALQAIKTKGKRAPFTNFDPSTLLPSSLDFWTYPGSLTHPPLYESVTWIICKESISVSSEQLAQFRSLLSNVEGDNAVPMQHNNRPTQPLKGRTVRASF
Dipeptidyl peptidase 8: Dipeptidyl peptidase 8 (Homo sapiens, UniProt Q6V1X1)
Chain of UniProt Q6V1X1 (whole entry, looked up): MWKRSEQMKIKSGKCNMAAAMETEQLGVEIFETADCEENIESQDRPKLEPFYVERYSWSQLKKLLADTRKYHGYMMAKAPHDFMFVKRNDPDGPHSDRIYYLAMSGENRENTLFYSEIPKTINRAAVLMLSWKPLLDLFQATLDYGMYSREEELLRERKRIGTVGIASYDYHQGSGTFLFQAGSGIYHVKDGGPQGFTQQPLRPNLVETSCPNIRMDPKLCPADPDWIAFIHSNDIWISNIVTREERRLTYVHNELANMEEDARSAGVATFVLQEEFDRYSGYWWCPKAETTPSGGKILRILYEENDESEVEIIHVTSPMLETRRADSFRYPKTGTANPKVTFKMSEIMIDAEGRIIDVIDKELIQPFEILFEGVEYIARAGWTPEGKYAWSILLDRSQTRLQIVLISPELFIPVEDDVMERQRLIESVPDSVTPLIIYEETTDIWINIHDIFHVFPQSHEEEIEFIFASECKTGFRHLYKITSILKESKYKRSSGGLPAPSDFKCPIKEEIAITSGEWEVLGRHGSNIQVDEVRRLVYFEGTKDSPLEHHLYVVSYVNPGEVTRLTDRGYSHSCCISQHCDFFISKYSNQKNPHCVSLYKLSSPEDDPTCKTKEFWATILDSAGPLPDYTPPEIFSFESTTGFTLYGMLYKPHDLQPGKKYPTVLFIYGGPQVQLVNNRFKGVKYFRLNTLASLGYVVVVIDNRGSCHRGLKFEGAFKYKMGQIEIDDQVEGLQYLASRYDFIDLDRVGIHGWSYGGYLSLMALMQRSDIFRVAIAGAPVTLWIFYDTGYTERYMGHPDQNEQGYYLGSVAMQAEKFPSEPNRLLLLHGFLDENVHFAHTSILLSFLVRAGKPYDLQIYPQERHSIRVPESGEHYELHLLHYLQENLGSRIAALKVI
HTR1A: 5-hydroxytryptamine receptor 1A (HTR1A, Homo sapiens, UniProt P08908)
Chain of UniProt P08908 (whole entry, looked up): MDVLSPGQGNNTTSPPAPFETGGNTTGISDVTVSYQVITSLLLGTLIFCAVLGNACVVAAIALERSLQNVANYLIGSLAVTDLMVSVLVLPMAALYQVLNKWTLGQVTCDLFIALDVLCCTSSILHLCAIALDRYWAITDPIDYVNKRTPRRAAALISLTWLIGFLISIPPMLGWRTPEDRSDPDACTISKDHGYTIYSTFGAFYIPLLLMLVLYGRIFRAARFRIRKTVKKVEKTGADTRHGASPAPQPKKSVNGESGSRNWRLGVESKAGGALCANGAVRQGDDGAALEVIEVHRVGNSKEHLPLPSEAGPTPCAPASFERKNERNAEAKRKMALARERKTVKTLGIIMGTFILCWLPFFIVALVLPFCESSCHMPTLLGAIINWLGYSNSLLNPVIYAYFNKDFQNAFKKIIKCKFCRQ
POLB: DNA polymerase beta (POLB, Homo sapiens, UniProt P06746)
Cnr2: Cannabinoid receptor 2 (Cnr2, Mus musculus, UniProt P47936)
Chain of UniProt P47936 (whole entry, looked up): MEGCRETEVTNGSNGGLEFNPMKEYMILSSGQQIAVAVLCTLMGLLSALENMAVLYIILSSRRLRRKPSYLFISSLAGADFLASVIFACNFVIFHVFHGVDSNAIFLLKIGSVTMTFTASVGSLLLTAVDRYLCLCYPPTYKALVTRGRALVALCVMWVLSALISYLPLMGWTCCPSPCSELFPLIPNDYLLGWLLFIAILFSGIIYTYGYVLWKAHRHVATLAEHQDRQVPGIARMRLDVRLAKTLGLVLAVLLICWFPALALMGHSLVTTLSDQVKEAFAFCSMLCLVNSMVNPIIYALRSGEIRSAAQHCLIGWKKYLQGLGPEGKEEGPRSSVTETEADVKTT
HRH2: Histamine H2 receptor (HRH2, Homo sapiens, UniProt P25021)
Chain of UniProt P25021 (whole entry, looked up): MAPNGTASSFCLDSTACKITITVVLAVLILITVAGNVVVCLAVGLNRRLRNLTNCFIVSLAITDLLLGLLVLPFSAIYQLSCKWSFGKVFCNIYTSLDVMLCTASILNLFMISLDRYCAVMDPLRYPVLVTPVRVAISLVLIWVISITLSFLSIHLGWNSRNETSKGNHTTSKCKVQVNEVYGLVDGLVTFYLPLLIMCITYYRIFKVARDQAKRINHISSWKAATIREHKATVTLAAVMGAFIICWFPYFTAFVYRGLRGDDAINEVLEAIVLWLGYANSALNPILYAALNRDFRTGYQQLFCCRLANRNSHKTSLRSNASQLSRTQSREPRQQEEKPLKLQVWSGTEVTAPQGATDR
Chain of UniProt P45983 (whole entry, looked up): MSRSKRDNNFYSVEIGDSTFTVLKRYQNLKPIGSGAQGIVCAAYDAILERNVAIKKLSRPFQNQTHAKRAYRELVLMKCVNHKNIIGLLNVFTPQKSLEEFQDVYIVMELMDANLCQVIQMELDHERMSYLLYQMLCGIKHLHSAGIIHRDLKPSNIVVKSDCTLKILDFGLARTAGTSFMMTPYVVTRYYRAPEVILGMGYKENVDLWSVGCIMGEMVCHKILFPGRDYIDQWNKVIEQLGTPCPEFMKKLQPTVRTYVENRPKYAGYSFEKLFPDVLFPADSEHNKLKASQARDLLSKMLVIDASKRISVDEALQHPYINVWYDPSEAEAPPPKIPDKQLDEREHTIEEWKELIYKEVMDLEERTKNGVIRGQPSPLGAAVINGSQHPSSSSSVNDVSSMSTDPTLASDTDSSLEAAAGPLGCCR
Chain of UniProt P09958 (whole entry, looked up): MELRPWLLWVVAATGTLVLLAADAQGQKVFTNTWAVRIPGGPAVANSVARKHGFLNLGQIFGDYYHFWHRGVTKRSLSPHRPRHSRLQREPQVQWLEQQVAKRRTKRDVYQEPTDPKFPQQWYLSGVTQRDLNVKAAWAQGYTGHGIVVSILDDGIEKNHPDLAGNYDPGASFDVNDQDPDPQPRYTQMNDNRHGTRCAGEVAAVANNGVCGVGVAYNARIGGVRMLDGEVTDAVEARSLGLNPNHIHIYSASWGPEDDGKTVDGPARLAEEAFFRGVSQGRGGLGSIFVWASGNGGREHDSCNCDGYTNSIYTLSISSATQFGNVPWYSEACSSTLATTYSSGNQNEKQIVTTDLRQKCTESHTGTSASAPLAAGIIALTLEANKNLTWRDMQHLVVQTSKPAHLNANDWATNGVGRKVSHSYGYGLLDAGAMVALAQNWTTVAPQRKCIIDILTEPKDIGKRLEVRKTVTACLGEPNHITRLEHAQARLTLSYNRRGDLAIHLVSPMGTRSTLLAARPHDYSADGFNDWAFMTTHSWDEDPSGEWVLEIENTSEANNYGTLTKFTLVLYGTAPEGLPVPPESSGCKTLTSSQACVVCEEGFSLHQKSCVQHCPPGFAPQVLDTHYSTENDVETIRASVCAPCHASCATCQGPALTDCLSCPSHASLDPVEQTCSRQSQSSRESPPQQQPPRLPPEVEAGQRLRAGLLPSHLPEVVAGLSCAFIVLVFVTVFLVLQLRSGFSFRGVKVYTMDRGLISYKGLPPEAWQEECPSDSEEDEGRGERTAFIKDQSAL
Chain of UniProt P11086 (whole entry, looked up): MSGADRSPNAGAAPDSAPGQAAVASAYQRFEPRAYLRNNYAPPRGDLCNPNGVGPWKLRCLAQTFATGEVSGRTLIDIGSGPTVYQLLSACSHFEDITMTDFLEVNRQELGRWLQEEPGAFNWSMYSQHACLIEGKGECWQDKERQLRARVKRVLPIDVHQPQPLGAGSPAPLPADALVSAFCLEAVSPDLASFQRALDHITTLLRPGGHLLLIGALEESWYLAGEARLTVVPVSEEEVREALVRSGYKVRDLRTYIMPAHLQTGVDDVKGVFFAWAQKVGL
Chain of UniProt Q9PHN5 (whole entry, looked up): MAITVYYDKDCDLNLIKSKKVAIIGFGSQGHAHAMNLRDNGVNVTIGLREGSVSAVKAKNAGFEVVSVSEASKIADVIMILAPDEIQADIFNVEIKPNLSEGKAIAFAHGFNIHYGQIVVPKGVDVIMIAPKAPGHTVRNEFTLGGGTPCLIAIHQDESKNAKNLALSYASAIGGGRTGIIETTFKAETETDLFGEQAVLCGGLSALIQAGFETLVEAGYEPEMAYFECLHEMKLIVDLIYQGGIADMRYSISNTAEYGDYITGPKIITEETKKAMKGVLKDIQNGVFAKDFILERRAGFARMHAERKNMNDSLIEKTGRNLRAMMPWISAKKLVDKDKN

Structure (SMILES) | target | test | conditions | Ki [nM]
Nc1ncnc2c1ncn2C1OC(CN(CCCC2CNCc3c2ccc(Cl)c3Cl)CCC(N)C(=O)O)C(O)C1O (mixture of isomers) | Phenylethanolamine N-methyltransferase (PNMT, Homo sapiens, UniProt P11086) | enzyme activity, inhibitor, radiolabel | pH 6.0, together with: [3H-methyl]SAM | 210
COC(=O)[C@@]1(C)C=C(C(=O)NCc2cccc(C(=O)Nc3ccc(Nc4nccc(-c5cccnc5)n4)c(C)c3)c2)C(=O)CC1 | Mitogen-activated protein kinase 8 (MAPK8, Homo sapiens, UniProt P45983) | SPR two-step binding model | wild-type protein surface | 7.4
N#Cc1ccc(-c2cc(CN3c4ccccc4C=Cc4ccccc43)on2)cc1 | Urease | enzyme activity, inhibitor | – | 7180
O=C1CCc2c(ccc3ccccc23)O1 | CA1 | enzyme activity, inhibitor, stopped-flow | – | 46100
CCC1(CC)C(=O)N(c2cccc(CCC(=O)O)c2)C1=O | Dipeptidyl peptidase 8 | enzyme activity, inhibitor, fluorescence | – | 316
CN1CCN(c2ccc3cnn(Cc4cccc5ccccc45)c3c2)CC1 | HTR1A | ligand displacement, radioligand | cell membranes | 1620
Clc1ccc(-c2cc(CN3c4ccccc4C=Cc4ccccc43)on2)cc1 | Urease | enzyme activity, inhibitor | – | 5060
CCCCC1CCC(=O)O1 (stereo not shown) | CA1 | enzyme activity, inhibitor, stopped-flow | – | 84000
O=C(NCCCCOP(=O)(O)OP(=O)(O)OP(=O)(O)O)OCC1c2ccccc2-c2ccccc21 | POLB | enzyme activity, inhibitor, radiometric | – | 71000
N#Cc1cccc(-c2cc(CN3c4ccccc4C=Cc4ccccc43)on2)c1 | Urease | enzyme activity, inhibitor | – | 6280
O=c1[nH]c2nc(-c3ccccc3)sc2c(=O)n1O | Ketol-acid reductoisomerase (NADP(+)) (ilvC, Campylobacter jejuni subsp. jejuni serotype O:2, UniProt Q9PHN5) | – | pre-incubation 3 h without NADPH, together with: NADPH 200 µM, AL 1 mM | 14.2 ± 2.5
CCOC(=O)C(CC)(CCCSCCOCCN)NC(=O)c1ccc(C2CC2)c(Cc2ccc(F)cc2)n1 (stereo not shown) | Cnr2 | ligand displacement, radioligand | cell membranes | 10
COCCNCc1ccc(-c2cc(Cl)cc(Cl)c2)o1 | D(2) dopamine receptor (DRD2, Homo sapiens, UniProt P14416) | ligand displacement, radioligand | – | 162
O=C(NCCOP(=O)(O)OP(=O)(O)OP(=O)(O)O)OCC1c2ccccc2-c2ccccc21 | POLB | DNA polymerase activity, inhibitor | together with: 1 mM Mg2+, poly(dA)/oligo(dT) | > 400000
CCOC(=O)C(CC)(CCCSCCOCCOCCN=[N+]=[N-])NC(=O)c1ccc(C2CC2)c(Cc2ccc(F)cc2)n1 (stereo not shown) | Cnr2 | ligand displacement, radioligand | cell membranes | 52
CCCC1(CC)C(=O)N(c2cccc(CN3CCN(Cc4ccc(Br)cc4)CC3)c2)C1=O | Dipeptidyl peptidase 8 | enzyme activity, inhibitor, fluorescence | – | 74.9
CCOC(=O)C(CC)(CCCSCCOCCOCCN)NC(=O)c1ccc(C2CC2)c(Cc2ccc(F)cc2)n1 (racemic) | Cnr2 | ligand displacement, radioligand | cell membranes | 9.8

Structure (SMILES) | target | test | conditions | Ki [nM]
Clc1cccc(-c2cc(CN3c4ccccc4C=Cc4ccccc43)on2)c1 | Urease | enzyme activity, inhibitor | – | 5360
CCOC(=O)C(CC)(CCCSCCOCCNC(=O)OC(C)(C)C)NC(=O)c1ccc(C2CC2)c(Cc2ccc(F)cc2)n1 (stereo not shown) | Cnr2 | ligand displacement, radioligand | cell membranes | 389
Fc1cccc(-c2cc(CN3c4ccccc4C=Cc4ccccc43)on2)c1 | Urease | enzyme activity, inhibitor | – | 8080
CCN(CC)Cc1ccc(C(=O)N(CCc2ccccc2OC)[C@@H]2CCNC2)cc1 | Membrane-bound transcription factor site-1 protease (Homo sapiens, UniProt Q14703, I308A) | – | – | 96
CC(C)[C@H](NC(=O)[C@H](CCCNC(=N)N)NC(=O)Cc1ccc(CNC(=N)N)cc1)C(=O)N[C@@H](CCCNC(=N)N)C(=O)NCc1ccc(C(=N)N)cc1 | Furin (FURIN, Homo sapiens, UniProt P09958) | enzyme activity, inhibitor | together with: Pyr-RTKR-AMC 12.5 µM | 0.0097
CCOC(=O)[C@@](CC)(CCCSCCOCCOCCNC(=O)OC(C)(C)C)NC(=O)c1ccc(C2CC2)c(Cc2ccc(F)cc2)n1 | Cnr2 | ligand displacement, radioligand | cell membranes | 552
CCC1(CC)C(=O)N(c2ccc(CC(=O)O)cc2)C1=O | Dipeptidyl peptidase 8 | enzyme activity, inhibitor, fluorescence | – | 440
Cn1ccc2c(N3CCN(CCCCOc4ccc5c(c4)NC(=O)CC5)CC3)cccc21 | HRH2 | ligand displacement, radioligand | – | 3800
CCc1c(Cl)cccc1N1CCN(C[C@@H](F)CCNC(=O)c2cc3ccccc3[nH]2)CC1 | HTR1A | ligand displacement, radioligand | cell membranes | 754
CCC1(CC)C(=O)N(c2cc(O)cc(C(=O)N3CCN(Cc4ccc(Br)cc4)CC3)c2)C1=O | Dipeptidyl peptidase 8 | enzyme activity, inhibitor, fluorescence | – | 7
Cc1cc(=O)oc2cc(OCCCCCCSC#N)ccc12 | CA1 | enzyme activity, inhibitor, stopped-flow | – | > 100000
O=C1N(c2cccc(CN3CCN(Cc4ccc(Br)cc4)CC3)c2)C(=O)C12CCCCC2 | Dipeptidyl peptidase 8 | enzyme activity, inhibitor, fluorescence | – | 17.7
N#C[Se]CCCCCCOc1ccc2c(-c3ccccc3)cc(=O)oc2c1 | CA1 | enzyme activity, inhibitor, stopped-flow | – | > 100000
CCOC(=O)C(CC)(CCCSCCCCCCNc1ccc([N+](=O)[O-])c2nonc12)NC(=O)c1ccc(C2CC2)c(Cc2ccc(F)cc2)n1 (stereo not shown) | Cnr2 | ligand displacement, radioligand | cell membranes | 144
O=C(c1cccc(N=Nc2ccc(OC3CC(N4CCCCC4)C3)cc2)c1)N1CCCC1 (stereo not shown) | HRH2 | ligand displacement, radioligand | – | > 10000
CCOC(=O)C(CC)(CCCSCCOCCOCCOCCOCCNc1ccc([N+](=O)[O-])c2nonc12)NC(=O)c1ccc(C2CC2)c(Cc2ccc(F)cc2)n1 (stereo not shown) | Cnr2 | ligand displacement, radioligand | cell membranes | 118
Fc1ccccc1-c1cc(CN2c3ccccc3C=Cc3ccccc32)on1 | Urease | enzyme activity, inhibitor | – | 9280

A few entries again:
Structure (SMILES) | target | test | conditions | Ki [nM]
CCOC(=O)C(CC)(CCCSCCOCCOCCN)NC(=O)c1ccc(C2CC2)c(Cc2ccc(F)cc2)n1 (racemic) | Cnr2 | ligand displacement, radioligand | cell membranes | 9.8
Fc1ccccc1-c1cc(CN2c3ccccc3C=Cc3ccccc32)on1 | Urease | enzyme activity, inhibitor | – | 9280
